# Results from different studies.
# Compare with care: the assays were run in different laboratories. Values joined by “and” are separate records of one study, mostly repeats; a detail may differ. ± gives the spread as reported.
# T1: riboswitch RNA, fused to Pepper aptamer; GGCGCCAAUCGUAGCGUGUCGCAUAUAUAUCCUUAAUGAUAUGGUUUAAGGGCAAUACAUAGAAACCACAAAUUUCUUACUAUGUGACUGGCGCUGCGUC
# Sequence of UniProt P30531 (whole entry, looked up): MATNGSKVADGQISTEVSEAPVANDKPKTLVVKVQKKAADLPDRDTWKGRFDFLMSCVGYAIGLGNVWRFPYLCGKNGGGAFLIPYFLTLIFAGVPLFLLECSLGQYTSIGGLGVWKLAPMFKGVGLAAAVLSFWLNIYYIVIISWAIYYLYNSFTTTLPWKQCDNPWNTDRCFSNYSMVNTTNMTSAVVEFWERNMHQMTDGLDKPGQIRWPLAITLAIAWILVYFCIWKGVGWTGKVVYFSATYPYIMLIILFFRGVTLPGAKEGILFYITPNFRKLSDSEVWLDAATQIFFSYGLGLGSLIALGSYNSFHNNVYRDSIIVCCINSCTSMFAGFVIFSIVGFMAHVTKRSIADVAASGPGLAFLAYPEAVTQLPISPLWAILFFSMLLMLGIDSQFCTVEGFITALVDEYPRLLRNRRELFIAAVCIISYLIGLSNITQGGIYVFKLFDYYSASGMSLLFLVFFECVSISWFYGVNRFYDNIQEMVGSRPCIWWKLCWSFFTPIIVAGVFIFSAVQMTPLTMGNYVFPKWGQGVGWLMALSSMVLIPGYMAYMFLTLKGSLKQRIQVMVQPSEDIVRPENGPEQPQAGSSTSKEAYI
# Sequence of UniProt O75030 (1-296, unmodified, looked up): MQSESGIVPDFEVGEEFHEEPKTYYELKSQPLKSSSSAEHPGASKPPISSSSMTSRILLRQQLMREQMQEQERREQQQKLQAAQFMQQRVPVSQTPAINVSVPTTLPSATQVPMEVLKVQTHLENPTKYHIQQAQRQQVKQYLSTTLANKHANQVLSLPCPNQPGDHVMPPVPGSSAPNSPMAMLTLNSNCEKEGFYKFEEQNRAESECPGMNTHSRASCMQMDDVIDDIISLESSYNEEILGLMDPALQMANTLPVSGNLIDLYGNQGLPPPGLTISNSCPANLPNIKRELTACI
# Sequence of UniProt P19491 (whole entry, looked up): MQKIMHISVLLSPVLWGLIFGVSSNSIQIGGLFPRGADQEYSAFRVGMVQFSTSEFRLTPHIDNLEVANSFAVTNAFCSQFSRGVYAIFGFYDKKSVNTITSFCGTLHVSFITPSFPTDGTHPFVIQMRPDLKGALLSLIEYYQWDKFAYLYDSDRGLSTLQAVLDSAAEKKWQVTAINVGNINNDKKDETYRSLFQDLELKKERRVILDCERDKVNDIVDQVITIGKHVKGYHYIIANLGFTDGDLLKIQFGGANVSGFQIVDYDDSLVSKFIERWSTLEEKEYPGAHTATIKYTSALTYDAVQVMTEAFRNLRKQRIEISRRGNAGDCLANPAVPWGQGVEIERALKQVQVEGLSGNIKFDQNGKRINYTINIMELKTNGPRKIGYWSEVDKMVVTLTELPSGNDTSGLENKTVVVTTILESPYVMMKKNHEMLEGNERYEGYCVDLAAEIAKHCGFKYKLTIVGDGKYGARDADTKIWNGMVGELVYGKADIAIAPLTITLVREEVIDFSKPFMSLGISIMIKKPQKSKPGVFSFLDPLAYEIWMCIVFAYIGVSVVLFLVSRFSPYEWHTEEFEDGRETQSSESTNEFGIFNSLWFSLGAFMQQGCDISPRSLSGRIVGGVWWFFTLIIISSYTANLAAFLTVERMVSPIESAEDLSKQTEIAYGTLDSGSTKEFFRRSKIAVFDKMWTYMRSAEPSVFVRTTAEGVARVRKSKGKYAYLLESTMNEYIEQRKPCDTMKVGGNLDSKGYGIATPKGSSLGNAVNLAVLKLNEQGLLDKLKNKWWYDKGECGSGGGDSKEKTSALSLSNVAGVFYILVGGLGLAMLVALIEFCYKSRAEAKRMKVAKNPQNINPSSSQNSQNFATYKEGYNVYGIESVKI
# Sequence of UniProt Q96RI0 (whole entry, looked up): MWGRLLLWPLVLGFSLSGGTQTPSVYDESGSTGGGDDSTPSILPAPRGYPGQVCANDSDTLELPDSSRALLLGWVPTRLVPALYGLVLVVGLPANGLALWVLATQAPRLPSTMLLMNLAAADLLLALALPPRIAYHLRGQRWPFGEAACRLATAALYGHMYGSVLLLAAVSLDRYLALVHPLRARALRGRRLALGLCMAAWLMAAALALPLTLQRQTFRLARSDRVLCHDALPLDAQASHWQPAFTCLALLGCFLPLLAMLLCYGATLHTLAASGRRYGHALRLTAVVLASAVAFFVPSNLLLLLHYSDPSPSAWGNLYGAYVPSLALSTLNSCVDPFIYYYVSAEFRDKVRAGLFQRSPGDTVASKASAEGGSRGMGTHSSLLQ
# Sequence of UniProt P55210 (whole entry, looked up): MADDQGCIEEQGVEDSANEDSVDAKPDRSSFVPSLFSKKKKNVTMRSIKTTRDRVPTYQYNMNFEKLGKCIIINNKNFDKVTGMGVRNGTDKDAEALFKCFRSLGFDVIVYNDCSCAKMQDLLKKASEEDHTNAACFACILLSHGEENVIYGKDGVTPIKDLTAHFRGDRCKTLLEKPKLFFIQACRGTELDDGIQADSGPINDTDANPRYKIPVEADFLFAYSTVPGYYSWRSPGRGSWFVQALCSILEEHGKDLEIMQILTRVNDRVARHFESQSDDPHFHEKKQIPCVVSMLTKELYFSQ
# Sequence of UniProt Q8TDU9 (whole entry, unmodified, looked up): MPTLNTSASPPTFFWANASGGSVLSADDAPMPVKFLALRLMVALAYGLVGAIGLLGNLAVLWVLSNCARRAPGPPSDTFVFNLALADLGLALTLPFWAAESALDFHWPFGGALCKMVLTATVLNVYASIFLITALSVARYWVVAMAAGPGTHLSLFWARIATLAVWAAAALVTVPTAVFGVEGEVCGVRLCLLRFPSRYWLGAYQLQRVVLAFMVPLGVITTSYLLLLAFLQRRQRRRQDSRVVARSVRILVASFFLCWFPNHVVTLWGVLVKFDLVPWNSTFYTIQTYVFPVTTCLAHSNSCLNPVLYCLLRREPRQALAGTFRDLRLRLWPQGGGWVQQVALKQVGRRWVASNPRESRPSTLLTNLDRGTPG
# Sequence of UniProt Q5TFE4 (whole entry, looked up): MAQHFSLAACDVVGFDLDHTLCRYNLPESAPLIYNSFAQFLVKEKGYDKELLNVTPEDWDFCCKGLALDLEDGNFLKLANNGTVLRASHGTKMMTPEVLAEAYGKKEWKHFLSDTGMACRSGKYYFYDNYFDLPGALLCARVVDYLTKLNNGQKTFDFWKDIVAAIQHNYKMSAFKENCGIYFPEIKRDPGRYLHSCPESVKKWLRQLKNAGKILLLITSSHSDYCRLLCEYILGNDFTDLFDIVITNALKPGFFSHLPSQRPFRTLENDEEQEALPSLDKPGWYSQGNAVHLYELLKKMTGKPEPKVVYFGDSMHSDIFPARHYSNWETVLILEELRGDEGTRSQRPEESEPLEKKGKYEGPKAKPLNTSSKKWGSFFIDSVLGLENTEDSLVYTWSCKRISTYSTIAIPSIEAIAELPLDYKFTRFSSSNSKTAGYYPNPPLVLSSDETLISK
# Sequence of UniProt Q9BY41 (whole entry, unmodified, looked up): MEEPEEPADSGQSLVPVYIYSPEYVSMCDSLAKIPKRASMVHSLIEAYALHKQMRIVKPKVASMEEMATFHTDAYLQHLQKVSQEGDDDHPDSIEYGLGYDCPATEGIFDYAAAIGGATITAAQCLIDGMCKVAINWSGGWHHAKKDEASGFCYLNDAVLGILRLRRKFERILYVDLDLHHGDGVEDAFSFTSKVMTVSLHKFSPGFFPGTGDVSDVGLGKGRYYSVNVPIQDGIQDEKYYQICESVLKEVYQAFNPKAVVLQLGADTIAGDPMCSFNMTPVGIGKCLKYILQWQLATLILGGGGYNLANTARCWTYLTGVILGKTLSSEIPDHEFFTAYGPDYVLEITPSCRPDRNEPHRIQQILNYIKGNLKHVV
# Sequence of UniProt P51451 (whole entry, looked up): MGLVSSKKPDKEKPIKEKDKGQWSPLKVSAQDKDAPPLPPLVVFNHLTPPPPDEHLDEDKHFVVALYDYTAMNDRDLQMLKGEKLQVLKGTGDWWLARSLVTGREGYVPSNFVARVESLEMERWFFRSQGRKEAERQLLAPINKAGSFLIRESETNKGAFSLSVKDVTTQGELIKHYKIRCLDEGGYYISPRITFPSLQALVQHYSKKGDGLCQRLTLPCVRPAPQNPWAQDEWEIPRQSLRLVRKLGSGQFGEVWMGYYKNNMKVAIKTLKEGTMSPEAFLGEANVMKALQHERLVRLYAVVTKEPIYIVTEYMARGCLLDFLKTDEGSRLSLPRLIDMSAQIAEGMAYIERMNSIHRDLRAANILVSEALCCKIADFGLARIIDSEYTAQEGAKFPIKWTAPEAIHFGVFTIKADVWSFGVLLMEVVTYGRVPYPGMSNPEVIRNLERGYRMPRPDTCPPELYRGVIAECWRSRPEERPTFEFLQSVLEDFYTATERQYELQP
# Sequence of UniProt O43193 (whole entry, looked up): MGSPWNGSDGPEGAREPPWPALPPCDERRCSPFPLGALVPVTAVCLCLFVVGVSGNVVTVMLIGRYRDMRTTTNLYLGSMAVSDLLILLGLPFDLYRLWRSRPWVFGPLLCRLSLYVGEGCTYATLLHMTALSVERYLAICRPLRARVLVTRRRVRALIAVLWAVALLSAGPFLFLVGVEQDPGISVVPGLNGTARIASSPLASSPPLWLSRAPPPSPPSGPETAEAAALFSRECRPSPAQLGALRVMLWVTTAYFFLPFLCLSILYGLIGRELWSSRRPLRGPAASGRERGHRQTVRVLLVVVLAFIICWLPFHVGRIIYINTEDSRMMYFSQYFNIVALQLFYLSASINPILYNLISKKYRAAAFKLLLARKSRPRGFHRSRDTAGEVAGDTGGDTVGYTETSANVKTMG
SMILES,target or system,assay,system,setting,scale,measurement,result
COc1ccc(C(OCCN2CCCC(C(=O)O)C2)(c2ccc(OC)cc2)c2ccc(OC)cc2)cc1 (stereo not drawn),"SLC6A1 (Homo sapiens, UniProt P30531)","GABA transport, inhibitor, radioligand uptake",HEK293F transfected,"32 nM, 15 min pre, 45 min uptake, room temperature, together with: [3H]-GABA 30 nM, GABA 25 µM",higher = more uptake,[3H]-GABA uptake,1290 a.u. and 1680 a.u. and 1150 a.u. and 5380 a.u. and 1140 a.u. and 4360 a.u. and 1270 a.u.
Cc1ccc(NC(=O)c2nn(C)c(=O)c3ccccc23)nc1,human kinase panel,"binding, KINOMEscan",,"10000 nM, %Ctrl below 35",,number of kinases hit,0
Cc1ncsc1-c1ccc(C(C)NC(=O)C2CC(O)CN2C(=O)C(NC(=O)CCCCCCCCCCN2CCCC(Nc3ncc(Cl)c(Nc4ccccc4S(=O)(=O)C(C)C)n3)C2)C(C)(C)C)cc1 (stereo not drawn),22Rv1,"RNA-seq, measured: TERF2 mRNA",,concentration not given,relative to: DMSO,log2 fold change,-1.13
Cc1cc(C#CC2(O)CCCCC2)cc2c1cc(C(=O)O)n2-c1cccc(Cl)c1,"Microphthalmia-associated transcription factor, residues 1-296 (Homo sapiens, UniProt O75030)",isothermal titration calorimetry,,25 °C,,-TΔS,4.85 kJ/mol and 10.4 kJ/mol
Cc1ccc(C)c(-c2cc(NC(=O)c3cncc(Br)c3)[nH]n2)c1,human kinase panel,"binding, KINOMEscan",,"10000 nM, %Ctrl below 35",,number of kinases hit,1
CC(=O)[O-].O.O.O.O.[Ni+2].[O-]c1ccc(Br)cc1C=NCCN1CCOCC1,,FRAP,,160 µM,,ferric reducing power,36.4%
O=C1C2CC3CC1CC(C(=O)N1CCN(c4ccc([N+](=O)[O-])c5ncccc45)CC1)(C3)C2,Salmonella typhimurium,Ames test,TA98,"0.31 µg/well, with S9",relative to: vehicle,revertant fold increase,0.8
O=C(CCCCCCS)Nc1ccccc1,"HDAC8 (Homo sapiens, UniProt Q9BY41)",ITC,Hepes buffer,pH 7.5,,TΔS,23 kJ/mol
O=C(O)Cc1cc2c(cc1C(=O)c1ccc(Cl)cc1Cl)OCO2,"Gria2 (Rattus norvegicus, UniProt P19491)","glutamate-evoked current, whole-cell patch clamp",HEK-293T,concentration not given,relative to: glutamate alone,current amplitude ratio,9.67 ± 0.9
C=CC(=O)N1C[C@H](C)N(c2nc(OC[C@@]34CCCN3C[C@H](F)C4)nc3c(F)c(-c4ccc(F)c5sc(N)c(C#N)c45)c(C(F)(F)F)cc23)C[C@H]1C,"GTPase KRas, GppNHp-bound (KRAS, Homo sapiens, UniProt P01116, G13D)",binding,,,,dissociation rate constant,0.184 ± 0.0059 s⁻¹
CCCCCC(O)/C=C/C=O (stereo not drawn),"5'-nucleotidase domain-containing protein 1 (NT5DC1, Homo sapiens, UniProt Q5TFE4)","competitive isoTOP-ABPP, measured: NT5DC1 cysteine peptide","proteome, soluble, MDA-MB-231","100 µM, together with: iodoacetamide probe","relative to: DMSO over compound-treated, higher = stronger cysteine blockade",isoTOP-ABPP competition ratio,3.2
O=C1c2sc(-c3ccc(N4CCC(F)C4)nc3F)nc2CCN1c1cccnc1 (stereo not drawn),"Motilin receptor (MLNR, Homo sapiens, UniProt O43193)","ligand displacement, radioligand",,1 µM,,inhibition,-10%
O=c1[nH]c(=O)c2[nH]cnc2[nH]1,"T1, riboswitch RNA, fused to Pepper aptamer",fluorescence,,"5 µM, negligible activation",,binding,no binding
Cc1nn(-c2cccc(N)c2)c(=O)c2cnc(Nc3ccc(N4CCNCC4)cc3)nc12,"BLK (Homo sapiens, UniProt P51451)","kinase activity, inhibitor, SelectScreen kinase profiling",,,,IC50,1.5 µM
COC1CN([C@H]2CC[C@H]([C@@]3(C)Oc4c(Cl)cc(C(=O)NCc5c(SC)cc(C)[nH]c5=O)c(C)c4O3)CC2)C1,,"RNA-seq, measured: BPGM mouse homolog","mouse, HT-1376 xenograft, whole blood",dose not given,relative to: vehicle,log2 fold change,1.24
CC[C@H](C)[C@@H]1NC(=O)[C@H](Cc2ccccc2)NC(=O)[C@H](CCC(=O)O)NC(=O)[C@H](CCCNC(=N)N)NC(=O)CNC(=O)[C@@H](NC(=O)[C@H](CC(C)C)NC(=O)[C@H](CCCNC(=N)N)NC(=O)[C@@H](NC(=O)CNC(=O)[C@H](Cc2ccc(O)cc2)NC(=O)[C@@H]2CCCN2C(=O)[C@H](C)NC(=O)[C@H](C)NC(=O)[C@@H](N)CCCNC(=N)N)C(C)C)CSSC[C@@H]2NC(=O)[C@@H](NC(=O)[C@H](CO)NC(=O)[C@H](CO)NC(=O)[C@H](CO)NC(=O)[C@H](CC(C)C)NC(=O)CNC(=O)[C@H](C)NC(=O)[C@H](CC(C)C)NC(=O)[C@@H](NC(=O)[C@@H](N)CC(=O)O)C(C)C)CSSC[C@H](NC(=O)CNC(=O)[C@H](Cc3c[nH]c4ccccc34)NC(=O)[C@H](CCCCN)NC2=O)C(=O)N[C@@H](CO)C(=O)N[C@@H](CCCCN)C(=O)N[C@@H](CO)C(=O)N[C@@H](CCC(=O)O)C(=O)N[C@@H]([C@@H](C)CC)C(=O)N[C@@H](CO)C(=O)N[C@@H](CO)C(=O)N[C@@H](CC(C)C)C(=O)N[C@H](C(=O)O)CSSC[C@@H](C(=O)NCC(=O)NCC(=O)N[C@@H](CO)C(=O)N[C@@H](CCCNC(=N)N)C(=O)N[C@@H](Cc2c[nH]c3ccccc23)C(=O)O)NC(=O)[C@H]([C@@H](C)O)NC(=O)[C@H](Cc2ccccc2)NC(=O)[C@H]([C@@H](C)CC)NC(=O)[C@H](C(C)C)NC(=O)[C@H](C)NC(=O)[C@H](CCCNC(=N)N)NC1=O,"RXFP4 (Homo sapiens, UniProt Q8TDU9, T121A)",,,T121A mutant,relative to: wild type,Δemax,inactive
CC(=O)N[C@@H](CC(C)C)C(=O)N[C@H](C(=O)N[C@@H](C)C(=O)N[C@@H](CC(=O)O)C(=O)COC(=O)c1c(C)cccc1C)C(C)(C)C,"Caspase-7 (CASP7, Homo sapiens, UniProt P55210)","enzyme activity, inhibitor",,,,kinact/KI,3600 M⁻¹ s⁻¹
O=C(Nc1cnccc1-c1ccc([18F])nc1)c1ccnc(NC(=O)C2CC2)c1,,ex vivo gamma counting,"GSK-3β transgenic mice, early-stage, cecum","intravenous, 120 min",,mean SUV,15
CCCCCCCCCCCCCCCC(=O)N[C@@H](CCCCN)C(=O)N[C@@H](CCCCN)C(=O)N[C@@H](CO)C(=O)N[C@@H](CCCNC(=N)N)C(=O)N[C@@H](C)C(=O)N[C@@H](CC(C)C)C(=O)N[C@@H](Cc1ccccc1)C(N)=O,"F2RL3 (Homo sapiens, UniProt Q96RI0)","antagonist, ex vivo light transmittance aggregometry","human, platelet-rich plasma","0.3 mg/kg, 1 h, together with: AYPGKF 160 µM",relative to: baseline,inhibition of platelet aggregation,7%
O=C(Nc1ccc(CNc2ncccn2)cc1)c1cc(-c2ccccc2)n(-c2ccccc2)n1,"Genome polyprotein, NS2B-NS3 protease (dengue virus type 2, UniProt P29990)",reporter gene,HeLa,12.5 µM,,inhibition,30 ± 12%
C=CC(=O)Nc1cccc(Cn2ncc3cnc(Nc4cnn(CCOC)c4)nc32)c1,PHKG2 human,"binding, KINOMEscan",,100 nM,lower = stronger binding,percent of control,100%
